Assay results from different studies.
Compare with care: the assays were run in different laboratories.

| SMILES | test | test system | setting | half-life |
| --- | --- | --- | --- | --- |
| CCN(c1cc(-c2ccc(CN3CCOCC3)cc2)cc(C(=O)NCc2c(C)cc(C)[nH]c2=O)c1C)C1CCOCC1 |  | female CB17 SCID mice, HT-1376 xenograft, plasma | 75 mg/kg, day 1 | 1.43 h |
| CCN1CCN(Cc2ccc(NC(=O)c3ccc(C)c(NC(=O)c4cncc(-c5cccs5)c4)c3)cc2C(F)(F)F)CC1 |  | C57BL/6 mice, epithelial lining fluid | intraperitoneal, 20 mg/kg | 1.87 h |
| COc1cc([C@@H]2Oc3ccc([C@H]4Oc5cc(O)cc(O)c5C(=O)[C@@H]4O)cc3O[C@H]2CO)ccc1O |  | FVB wild-type mice, plasma | oral gavage, 500 mg/kg silymarin | 0.38 h |
| CN[C@@H](C)C(=O)N[C@H]1CN(C(=O)CC(C)C)CC[C@H]2CC[C@@H](C(=O)NC(c3ccccc3)c3ccccc3)N2C1=O |  | SCID mice, MDA-MB-231 xenograft |  | ~3 h |
| COc1cc([C@@H]2Oc3cc([C@H]4Oc5cc(O)cc(O)c5C(=O)[C@@H]4O)ccc3O[C@H]2CO)ccc1O |  | FVB wild-type mice, plasma | oral gavage, 500 mg/kg silymarin | 0.32 h |
| Cc1c(C(=O)O)ccc2c3n(nc12)[C@@H]1[C@H](C3)N(CC2CC2)[C@@]2(C(=O)Nc3cc(Cl)ccc32)[C@H]1c1cccc(Cl)c1F |  | female BALB/c nude mice, SJSA-1 xenograft, plasma | oral, 2 mg/kg once daily, mean | 17.6 h |
| FC(F)(F)CN1CC(n2cc(Oc3ccn4nc(Cl)cc4n3)cn2)C1 |  | FVB mice, blood | oral | 1.8 h |
| COc1cccc2c(N3CCC(CCP(=O)(O)O)CC3)ncnc12 | LC-MS | female mice, MC-38 subcutaneous tumour, MC-38 tumour | subcutaneous, 50 mg/kg | 2.3 h |
| CC1(C)CC[C@]2(C(=O)O)CC[C@]3(C)C(=CC[C@@H]4[C@@]5(C)C[C@@H](O)[C@H](OC(=O)/C=C/c6ccc(O)cc6)C(C)(C)[C@@H]5CC[C@]43C)[C@@H]2C1 (relative stereo) |  | C57BL/6 mice, brain | intraperitoneal, 85 µmol/kg single dose | 1.75 h |
| Nc1ncn([C@H]2C[C@H](O)[C@@H](CO)O2)c(=O)n1 | UHPLC-MS/MS | C57BL/6 mice, female, plasma | oral, 0.4 mg/kg | 0.94 h |
| COc1cc([C@@H]2[C@H]3CO[C@@]4(O)C(=O)[C@@H]2C=C([C@H]2Oc5cc(O)cc(O)c5C(=O)[C@@H]2O)[C@@H]34)ccc1O |  | FVB wild-type mice, plasma | oral gavage, 500 mg/kg silymarin | 7.7 h |

Excerpt of the above:
| SMILES | test | test system | setting | half-life |
| --- | --- | --- | --- | --- |
| COc1cc([C@@H]2[C@H]3CO[C@@]4(O)C(=O)[C@@H]2C=C([C@H]2Oc5cc(O)cc(O)c5C(=O)[C@@H]2O)[C@@H]34)ccc1O |  | FVB wild-type mice, plasma | oral gavage, 500 mg/kg silymarin | 7.7 h |
